Assay results of several laboratories.
Numbered parts are unrelated; each lists some results of a single study.
Chain of UniProt P16220 (whole entry, looked up): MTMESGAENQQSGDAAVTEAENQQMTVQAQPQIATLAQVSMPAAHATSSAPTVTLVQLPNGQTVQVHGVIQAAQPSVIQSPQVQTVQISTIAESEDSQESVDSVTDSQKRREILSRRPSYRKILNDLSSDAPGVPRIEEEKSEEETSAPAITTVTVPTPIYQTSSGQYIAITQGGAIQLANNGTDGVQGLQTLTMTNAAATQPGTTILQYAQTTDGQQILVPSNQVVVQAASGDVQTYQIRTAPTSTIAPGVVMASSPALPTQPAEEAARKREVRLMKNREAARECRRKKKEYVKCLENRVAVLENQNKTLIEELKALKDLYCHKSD

Set 1
Target: Phosphate system positive regulatory protein PHO4, full length, GST-tagged (PHO4, Saccharomyces cerevisiae, UniProt P07270, residues 1-312)
Technique: competition protein-binding microarray
Form: double-stranded DNA, one strand shown
Matrix: in vitro
Concentration: 2 µM
Notes: whole 60-bp probe, lowest competitor level
Added: Cbf1 competitor, 0.05 µM
Direction: higher = stronger binding
Target sequence (chain): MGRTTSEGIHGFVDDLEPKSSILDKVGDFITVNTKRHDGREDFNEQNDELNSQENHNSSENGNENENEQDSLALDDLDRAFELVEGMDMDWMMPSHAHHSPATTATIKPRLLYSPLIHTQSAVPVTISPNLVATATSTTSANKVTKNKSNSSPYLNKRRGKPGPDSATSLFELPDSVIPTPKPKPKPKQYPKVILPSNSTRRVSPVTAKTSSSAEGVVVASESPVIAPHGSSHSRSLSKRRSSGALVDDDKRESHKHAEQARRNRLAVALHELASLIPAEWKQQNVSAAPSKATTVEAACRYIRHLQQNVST
The fluorescence intensity of `CCGAGTATGTATCCACACGTTGGTACAGGGCGCCAGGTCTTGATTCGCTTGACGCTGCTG` is reported as 9310 a.u.
With `TGCGCAACAACTTGGCTAGTGGGTGTATGTCTAGAAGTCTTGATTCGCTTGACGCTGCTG` the fluorescence intensity was 4550 a.u.
The fluorescence intensity of `TTTATGTGGCCTTAAATTTTCGACCTATGGTTCACTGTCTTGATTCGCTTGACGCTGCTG` is reported as 2820 a.u.
`TGATGTGGTTTCTACAGCTGGGTATTCACAATAAAAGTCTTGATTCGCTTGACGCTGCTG` has a fluorescence intensity of 3080 a.u.
With `TTGCGCTGCCCAATCCACGTGGAACAATCCTGTTCAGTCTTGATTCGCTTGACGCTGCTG` the fluorescence intensity was 17500 a.u.

Set 2
Target: Interferon regulatory factor 7, full length, phosphomimetic (IRF7, Homo sapiens, UniProt Q92985, residues 1-503, S101K/S471D/S472D/S475D/S476D/S477D/S483D/S484D/S487D)
Technique: protein-binding microarray
Form: double-stranded DNA, one strand shown
Matrix: in vitro
Concentration: 250 nM
Notes: 60-bp whole probe
Added: salmon DNA 0.4 mg/ml
Reference: random background probes
Direction: higher = stronger binding
Constant ends, left off below: GCCTAGCAC … GTCTTGATTCGCTTGACGCTGCTG
Residues (chain): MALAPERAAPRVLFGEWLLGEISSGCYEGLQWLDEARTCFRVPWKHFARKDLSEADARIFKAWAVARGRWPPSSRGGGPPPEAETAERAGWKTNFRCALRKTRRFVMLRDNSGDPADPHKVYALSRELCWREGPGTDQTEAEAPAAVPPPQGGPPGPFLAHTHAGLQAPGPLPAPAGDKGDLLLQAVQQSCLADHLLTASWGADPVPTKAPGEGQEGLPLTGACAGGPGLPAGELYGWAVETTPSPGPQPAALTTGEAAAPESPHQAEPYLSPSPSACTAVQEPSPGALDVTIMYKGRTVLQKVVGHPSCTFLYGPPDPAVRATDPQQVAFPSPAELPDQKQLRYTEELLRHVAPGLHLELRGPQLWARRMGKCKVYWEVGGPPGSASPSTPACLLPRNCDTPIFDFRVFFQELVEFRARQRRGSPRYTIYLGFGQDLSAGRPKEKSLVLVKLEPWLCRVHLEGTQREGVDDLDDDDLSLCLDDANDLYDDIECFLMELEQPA
`GACGAATTCGGGTTTCGAGACGTGCTA` has a log fluorescence of 3.85 z-score.
With `GACGATATCGTGACTGGAGACGTGCTA` the log fluorescence was -0.409 z-score.
For `GACGGTATCGCCTTTCGGGACGTGCTA`, the log fluorescence was 0.385 z-score.
For `TTAGTTTTCGACTATCGGTTAGTGCTA`, the log fluorescence was 1.97 z-score.
With `TTAGAACTGAGTCTCTATTAGTGCTAG` the log fluorescence was 0.0747 z-score.
The log fluorescence of `TCATCTCTTGTTCTCTCACTGTGCTAG` is reported as 0.87 z-score.
For `CTTTATGTACTCTCTCCATGTGTGCTA`, the log fluorescence was 0.659 z-score.
For `GACTGTTTCGGACTGGGGACGTGCTAG`, the log fluorescence was 1.4 z-score.

Set 3
Target: Replicase polyprotein 1ab, nsp13 helicase (rep, Severe acute respiratory syndrome coronavirus 2, UniProt P0DTD1)
Action: inhibitor
Concentration: 20 µM
With `Cc1cc(C#N)cc(C)c1Oc1nc(Nc2ccc(C#N)cc2)nc(N)c1Br` the inhibition was -0.32%.
`C[N+]1(C)[C@@H]2CC[C@H]1C[C@@H](OC(=O)C(CO)c1ccccc1)C2` (stereo partly drawn) has an inhibition of 0.81%.
`N[C@@H](CC(=O)NO)C(=O)O` gave an inhibition of 4.31%.
For `O=c1c(O)c(-c2ccc(O)cc2O)oc2cc(O)cc(O)c12`, the inhibition was 39.3%.
`Cc1cccc(C(=O)O)c1O` gave an inhibition of 0.96%.
For `CCOc1ccccc1O[C@H](c1ccccc1)[C@H]1CNCCO1`, the inhibition was 2.98%.
For `Cc1[nH]cnc1CN1CCc2c(c3ccccc3n2C)C1=O`, the inhibition was -2.03%.
With `Cn1nnnc1SCC1=C(C(=O)O)N2C(=O)[C@@H](NC(=O)[C@H](O)c3ccccc3)[C@H]2SC1` the inhibition was 5%.
`Cc1c(F)cccc1NC(=O)Nc1ccc(Cl)c(S(=O)(=O)[C@H]2CCCNC2)c1O` gave an inhibition of -1.68%.
For `C[C@@]12C[C@@]3(O)O[C@@H](O1)[C@]1(COC(=O)c4ccccc4)[C@H]3C[C@@]12O[C@@H]1O[C@H](CO)[C@@H](O)[C@H](O)[C@H]1O`, the inhibition was 8.58%.
The inhibition of `CCCCC(F)(F)[C@@]1(O)CC[C@H]2[C@@H](CC(=O)[C@@H]2CCCCCCC(=O)O)O1` is reported as 14.8%.
With `NS(=O)(=O)c1cc2c(cc1C(F)(F)F)NCNS2(=O)=O` the inhibition was -2.85%.
The inhibition of `CC(=O)Nc1ccc(C(=O)Nc2ccccc2N)cc1` is reported as 1.69%.
With `O=C(/C=C/c1ccc(O)cc1)c1ccc(O)cc1O` the inhibition was 3.95%.
`NC(=O)C(c1ccccc1)(c1ccccc1)[C@@H]1CCN(CCc2ccc3c(c2)CCO3)C1` gave an inhibition of 6.29%.
`COC(=O)C1=CO[C@@H](O[C@@H]2O[C@H](CO)[C@@H](O)[C@H](O)[C@H]2O)[C@@H]2C(CO)=CC[C@H]12` has an inhibition of 2.12%.
`CCCCCCCCCCCCc1ccc(S(=O)(=O)Nc2nncs2)cc1` has an inhibition of 5.79%.
`COC(=O)Nc1nc2cc(C(=O)c3cccs3)ccc2[nH]1` has an inhibition of 5.93%.
For `Cc1oc2nc3c(c(NC(=O)CN4CCCC4=O)c2c1C)CCCC3`, the inhibition was 0.88%.
`O=C1NC(=O)[C@@]2(CCOc3ccc(F)cc32)N1` has an inhibition of 2.6%.
With `COc1cc2c(NC3CCN(C(C)C)CC3)nc(N3CCC(F)(F)CC3)nc2cc1OCCCN1CCCC1` the inhibition was 11.6%.
With `CCN(CC)CCCC(C)Nc1nc(C)cc(Nc2ccc3nc(C)cc(N)c3c2)n1` (stereo not drawn) the inhibition was 20.2%.
`CC(C)c1c(CN(C)C(C)Cc2ccccc2)n(C)n(-c2ccccc2)c1=O` (stereo not drawn) gave an inhibition of 5.63%.
The inhibition of `O=C(O)C(=O)c1cn(Cc2ccccc2)c2ccc(-c3ccc(OC(F)(F)F)cc3)cc12` is reported as 10.1%.
For `COC(=O)Nc1nc2cc([S+]([O-])c3ccccc3)ccc2[nH]1` (stereo not drawn), the inhibition was 0.09%.

Set 4
Organism: Vesicular stomatitis virus
Read-out: pseudovirus infection
Technique: FDA-approved drug library screen
Concentration: concentration not given
Notes: SARS-CoV-2 spike pseudotype
Reference: vehicle
`NC(=O)NO` has a GFP-positive cells of 90.8%.
`C[C@]12CC[C@@H]3c4ccc(O)cc4CC[C@H]3[C@@H]1CC[C@@H]2OC(=O)CCC1CCCC1` has a GFP-positive cells of 84.8%.
`C[C@@H]1CCN(C(=O)CC#N)C[C@@H]1N(C)c1ncnc2[nH]ccc12.O=C(O)CC(O)(CC(=O)O)C(=O)O` gave a GFP-positive cells of 77.8%.

Set 5
Target: Ras GTPase-activating protein-binding protein 1, C-terminal RGG region (G3BP1, Homo sapiens, UniProt Q13283)
Chain of UniProt Q13283 (whole entry, looked up): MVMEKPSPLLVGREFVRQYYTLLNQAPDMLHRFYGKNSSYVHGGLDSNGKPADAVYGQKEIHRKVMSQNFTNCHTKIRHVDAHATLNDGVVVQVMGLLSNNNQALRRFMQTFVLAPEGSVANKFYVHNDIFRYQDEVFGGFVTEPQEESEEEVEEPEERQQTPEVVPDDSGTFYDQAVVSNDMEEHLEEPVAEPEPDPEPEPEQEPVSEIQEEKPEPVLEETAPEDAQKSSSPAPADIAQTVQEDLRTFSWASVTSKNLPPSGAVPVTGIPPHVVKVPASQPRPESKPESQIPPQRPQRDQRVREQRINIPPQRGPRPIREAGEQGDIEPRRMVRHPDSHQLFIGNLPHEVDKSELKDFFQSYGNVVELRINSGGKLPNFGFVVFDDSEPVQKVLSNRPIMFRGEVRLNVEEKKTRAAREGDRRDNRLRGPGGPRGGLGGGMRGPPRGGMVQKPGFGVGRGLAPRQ
Technique: RNA Bind-n-Seq
Form: RNA
Matrix: in vitro
Concentration: 1 µM
Notes: whole 134-nt RNA, ends assumed
Added: 150 mM KCl
Reference: input library
Direction: higher = stronger binding
The log2 enrichment of `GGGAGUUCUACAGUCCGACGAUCUCCUGUGCUACACAUCGUAUGUACCGAAUCGGGGUUUUUUGGUUUUUUGGUUUUUUGGGAAAGUAUUAUGUUACGCCGUUCGGAUCUGCAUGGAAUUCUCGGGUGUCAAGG` is reported as -1.01.
`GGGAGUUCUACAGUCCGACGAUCCUGUGCUACACAUCGUAUGUACCGAAUCGGGGAAAAAAAGGGGAAAAAGGGGUUUUUGGGGAAAGUAUUAUGUUACGCCGUUCGGAUCUGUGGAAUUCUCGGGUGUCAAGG` has a log2 enrichment of 0.84.
For `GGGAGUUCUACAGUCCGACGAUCUCCUGUGCUACACAUCGUAUGUACCGAAUCAAACCCCCCCAAAUUUUUUUAAACCCAAAAAAGUAUUAUGUUACGCCGUUCGGAUCUGCAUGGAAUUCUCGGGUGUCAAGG`, the log2 enrichment was -0.605.
`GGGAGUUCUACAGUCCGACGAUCCUCAAGUCCUGUGCUACACAUCGUAUGUACCGAAUCGGGGCGGGGCGGGGCGGGAAAGUAUUAUGUUACGCCGUUCGGAUCUGCACUUCCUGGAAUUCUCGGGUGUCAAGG` gave a log2 enrichment of 2.42.
`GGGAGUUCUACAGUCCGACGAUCUGGGAGGUGGAUUUUGUUUAUUUUUUUAGCUCAUUUCCAGGGGUGGGAAUUUUUUUUUACUAUGUGUCAUGAAUAAAGUUGUUUUUGAAAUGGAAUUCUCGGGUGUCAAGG` gave a log2 enrichment of 3.59.
The log2 enrichment of `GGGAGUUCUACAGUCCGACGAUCGCAGGAAGUAAAAACAAAUGGAAAUGCUUCGGAUAGUGGCAGGGGUGGGGGUUGCUAAGGAAAGGGUGGAAUGGGAGUGGGUAAAGAGUUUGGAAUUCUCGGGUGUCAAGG` is reported as 1.77.
`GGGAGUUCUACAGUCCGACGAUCUUAAGAAUAUUUAGAUAUUUGUAAAAGAAUUUGAAUGAUUUAUUUAAUAUAACGUUUAUUUUAUUAGCUCUAUUCCAAUUGAUUACAACCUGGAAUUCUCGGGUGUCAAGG` gave a log2 enrichment of -2.09.
For `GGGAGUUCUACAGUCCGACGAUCAUGUUCUUGAAUACUUAGCAAACAUACCAGCAUCCCAAAGUCACCAAGAUAAACCCUCCUACUCCAACAUCACAUGAUCUUCUAAUUCUAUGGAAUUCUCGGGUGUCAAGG`, the log2 enrichment was -0.726.

Set 6
Target: Replicase polyprotein 1ab, main protease (rep, Severe acute respiratory syndrome coronavirus 2, UniProt P0DTD1)
Read-out: enzyme activity
Action: inhibitor
Concentration: 20 µM
Notes: primary screen
`Oc1cc2c(c(Cl)c1O)CCNCC2c1ccccc1` (stereo not drawn) has an inhibition of 94.5%.
`CC(=O)[O][Hg][c]1ccccc1` has an inhibition of 100%.
With `O=C(O)c1cc(N2N=C(C(F)(F)F)/C(=C/c3ccc(-c4ccccc4)o3)C2=O)ccc1Cl` the inhibition was 80.6%.
For `CSc1ccc(C(=O)c2nc(O)[nH]c2C)cc1`, the inhibition was 84.4%.

Further values, each from its own experiment
Technique: protein-binding microarray
Form: double-stranded DNA, one strand shown
Matrix: in vitro
Concentration: not given
Notes: k-mer, scored over probes, only values ≥0.25
Direction: higher = stronger binding
MYC bHLH-zipper, MAX partner unstated: Myc proto-oncogene protein, bHLH-zipper, MAX partner unstated (MYC, Homo sapiens, UniProt P01106, residues 368-449)
Chain of UniProt P01106 (368-449, looked up): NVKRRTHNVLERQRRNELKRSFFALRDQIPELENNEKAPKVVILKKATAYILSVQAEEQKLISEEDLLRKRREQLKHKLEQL
The E-score of `CATGTCCA` is reported as 0.3 (MYC bHLH-zipper, MAX partner unstated).
`CACCCCGC` has an E-score of 0.334 (MYC bHLH-zipper, MAX partner unstated).
`ATTGACG` has an E-score of 0.304 (Cyclic AMP-responsive element-binding protein 1 (CREB1, Homo sapiens, UniProt P16220, residues 1-327, full length assumed)).
`CACGTGAC` gave an E-score of 0.487 (MYC bHLH-zipper, MAX partner unstated).
